Results from different studies.
Numbered parts are unrelated; each lists some results of a single study.

Series 1
Target: RNA binding protein fox-1 homolog 2, RRM domain, GST-SBP tag (RBFOX2, Homo sapiens, UniProt O43251-10, residues 100-194)
Technique: RNA Bind-n-Seq
Molecule type: RNA
Sample: in vitro
Tested at: 365 nM
Setting: natural RNA segment, single round, ends assumed
Relative to: no-protein control
Direction: higher = stronger binding
Construct (chain): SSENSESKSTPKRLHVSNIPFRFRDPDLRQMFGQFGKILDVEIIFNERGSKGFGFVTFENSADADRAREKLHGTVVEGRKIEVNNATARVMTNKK
Under “RBNS enrichment (R)”, `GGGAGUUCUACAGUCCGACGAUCAAUGAUAUAAACUACUUUUAACUAAGAUGCCUAACAGGCUUUUAACACAGGUGUCCAUCUCCACUCUGUCCCCGGUCUCUGUCCCAGCUCAGGCUGCGUUCUCUAACUCAUGGAAUUCUCGGGUGCCAA` is recorded as 0.372.
`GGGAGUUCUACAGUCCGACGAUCCAGGCUUUUAUUUCCAGGUAACCUAUCUGUGGAAGACCUAAUUCUGAAUAGAGUAAUAGAUAUUACUGGAAACUGAUUUGUUUUUUUUUUCCUAUUAUACUCUGCUUUAUUGGAAUUCUCGGGUGCCAA` — result for “RBNS enrichment (R)”: 0.354.
`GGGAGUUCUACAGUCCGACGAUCACCUUUUGGGAAUCUAAUGUAUUGUAAGGUAUUUUACACGUGUCCUGAUUUUGCCACAACCUGGAUAUUGAAGCUAUCCAAGCUUUUGAAAUAAAAUUUAAAAACCCCCAUGGAAUUCUCGGGUGCCAA` — result for “RBNS enrichment (R)”: 0.466.
`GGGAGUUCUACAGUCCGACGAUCGAGUGUAGUGAAACGGACUCUCAUGUGAACUGGGUGGUUUCCACUAAGAAUGGUUGUGUUUGGAUACUUGUAAAUGCUGUUUAGUUAGAAAAAGCAUGUUAAGUUGGUAUUGGAAUUCUCGGGUGCCAA` — result for “RBNS enrichment (R)”: 8.01.
`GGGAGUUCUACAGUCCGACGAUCUAUAUGCUGGAUGUACGACAUUUUGUGACUGAAGAGACUUGGUUCCUUCUUCUUUUAUGUGUCUCAGAAUAUUUUUGAGGCGAAAGCGUCUGUCUCUUGGCUAUUUUAACUGGAAUUCUCGGGUGCCAA`: “RBNS enrichment (R)” 0.571.
For `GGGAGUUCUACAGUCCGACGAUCCCUUGGCUGUCCUAGAACUCUAUGUAGAUCAUGCUGGUCUAGCGCUCACAGAGAUCAGAACUCUGUGUAGAUCACACUGGUCUAGAACUCAGAGUCUGCCUGCAUCUGUCUGGAAUUCUCGGGUGCCAA`, “RBNS enrichment (R)” read 1.28.
Under “RBNS enrichment (R)”, `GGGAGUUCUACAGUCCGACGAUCGCUAGAGGAAGCAGCCUUCCCACACGUCAGCACCGUAUGCUAAUUUGCUGGAACAGGACGGUUUGGAUGUUUAUAGGGGAAAUGGAUAGUAGAUGUUAGGACCAACUGAGUGGAAUUCUCGGGUGCCAA` is recorded as 8.3.
`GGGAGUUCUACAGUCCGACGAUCUAUGUAAAGGAGGGAAGGGAAGGCUUAAAAAGUCAUGUUCUUGCACCCUUUUUAAAUCACAGAAAUAAAGUUUCAGUUGUCUCAAGAGACAUUAAUCAGGAAUACAGAAUUGGAAUUCUCGGGUGCCAA`: “RBNS enrichment (R)” 0.292.

Series 2
Target: Interferon regulatory factor 5, full length, phosphomimetic (IRF5, Homo sapiens, UniProt Q13568-2, residues 1-514, S451D/S453D/S456D/S462D)
Technique: protein-binding microarray
Molecule type: double-stranded DNA, one strand shown
Sample: in vitro
Tested at: 940 nM top
Setting: 60-bp whole probe
Added: salmon DNA 0.4 mg/ml
Relative to: random background probes
Direction: higher = stronger binding
Constant ends, left off below: GCCTAGCAC … GTCTTGATTCGCTTGACGCTGCTG
`TTAGAACTGGGGACTAGATTAGTGCTA` — result for “fitted relative affinity”: 0.25 z-score.
`GACGATCACAGTATCGAGACGTGCTAG`: “fitted relative affinity” 1.44 z-score.
Under “fitted relative affinity”, `TCACACACCATTCTCGGACTGTGCTAG` is recorded as 1.1 z-score.
Under “fitted relative affinity”, `TTCGAACTGAGACTGGATTAGTGCTAG` is recorded as -0.253 z-score.
`GACGGTTTCCTTCTCCTTACGTGCTAG`: “fitted relative affinity” 1.67 z-score.
`TTAGGTATCGTCACTGGGTTAGTGCTA` — result for “fitted relative affinity”: 2.99 z-score.
`TTTTGCTTTCTTTTATGCTCGTGCTAG`: “fitted relative affinity” 2.2 z-score.
`GCCGGACTGCTTTTCCTGACGTGCTAG` — result for “fitted relative affinity”: -0.361 z-score.
Under “fitted relative affinity”, `TTAGATAACAGTTTCGATTAGTGCTAG` is recorded as 8.07 z-score.

Series 3
Target: Protein C-ets-1 (ETS1, Homo sapiens, UniProt P14921, residues 1-441, Y397A, full length assumed)
UniProt P14921, sequence (whole entry, unmodified, looked up): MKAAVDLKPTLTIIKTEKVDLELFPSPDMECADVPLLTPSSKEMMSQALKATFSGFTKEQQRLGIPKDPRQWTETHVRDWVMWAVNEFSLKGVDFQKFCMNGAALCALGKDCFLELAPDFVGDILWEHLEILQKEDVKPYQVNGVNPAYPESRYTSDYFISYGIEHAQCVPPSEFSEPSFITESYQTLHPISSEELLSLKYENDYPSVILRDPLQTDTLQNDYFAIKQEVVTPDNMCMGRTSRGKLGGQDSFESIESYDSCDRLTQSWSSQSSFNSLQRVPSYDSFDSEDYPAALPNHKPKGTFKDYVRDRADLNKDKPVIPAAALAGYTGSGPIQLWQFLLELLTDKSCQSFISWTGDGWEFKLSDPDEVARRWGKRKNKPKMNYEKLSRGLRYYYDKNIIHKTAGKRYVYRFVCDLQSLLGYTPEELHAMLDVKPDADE
Technique: protein-binding microarray
Molecule type: double-stranded DNA, one strand shown
Sample: in vitro
Tested at: not given
Setting: k-mer, scored over probes, only values ≥0.25
Direction: higher = stronger binding
`CGGCAAAA` has an E-score of 0.289.
For `AATTGCAA`, the E-score was 0.266.
For `CACCGGTG`, the E-score was 0.368.
`CTTCCGGC` has an E-score of 0.455.
The E-score of `CGTTTTGC` is reported as 0.352.
The E-score of `TTCGACAA` is reported as 0.253.
The E-score of `ACATGCAA` is reported as 0.269.

Mixed results
`PhoQ, residues 284 288 289 292 302 303 NLGVHL` gave a fold induction of 0.606 (PhoP, residues 12 14 15 18 19 TQAML (Escherichia coli, UniProt P23836); Sort-seq, refers to: YFP reporter; E. coli; PhoQ-PhoP variant library, added: 10 µM Mg2+; relative to: high Mg2+ state, higher = stronger signaling).

A few entries again (series 2):
`GACGATCACAGTATCGAGACGTGCTAG`: “fitted relative affinity” 1.44 z-score.
Under “fitted relative affinity”, `TCACACACCATTCTCGGACTGTGCTAG` is recorded as 1.1 z-score.
Under “fitted relative affinity”, `TTCGAACTGAGACTGGATTAGTGCTAG` is recorded as -0.253 z-score.
`GACGGTTTCCTTCTCCTTACGTGCTAG`: “fitted relative affinity” 1.67 z-score.
